Assay results of several laboratories.
Every numbered part comes from another study and shows a few of its results, in no order.
UniProt P10721, sequence (whole entry, unmodified, looked up): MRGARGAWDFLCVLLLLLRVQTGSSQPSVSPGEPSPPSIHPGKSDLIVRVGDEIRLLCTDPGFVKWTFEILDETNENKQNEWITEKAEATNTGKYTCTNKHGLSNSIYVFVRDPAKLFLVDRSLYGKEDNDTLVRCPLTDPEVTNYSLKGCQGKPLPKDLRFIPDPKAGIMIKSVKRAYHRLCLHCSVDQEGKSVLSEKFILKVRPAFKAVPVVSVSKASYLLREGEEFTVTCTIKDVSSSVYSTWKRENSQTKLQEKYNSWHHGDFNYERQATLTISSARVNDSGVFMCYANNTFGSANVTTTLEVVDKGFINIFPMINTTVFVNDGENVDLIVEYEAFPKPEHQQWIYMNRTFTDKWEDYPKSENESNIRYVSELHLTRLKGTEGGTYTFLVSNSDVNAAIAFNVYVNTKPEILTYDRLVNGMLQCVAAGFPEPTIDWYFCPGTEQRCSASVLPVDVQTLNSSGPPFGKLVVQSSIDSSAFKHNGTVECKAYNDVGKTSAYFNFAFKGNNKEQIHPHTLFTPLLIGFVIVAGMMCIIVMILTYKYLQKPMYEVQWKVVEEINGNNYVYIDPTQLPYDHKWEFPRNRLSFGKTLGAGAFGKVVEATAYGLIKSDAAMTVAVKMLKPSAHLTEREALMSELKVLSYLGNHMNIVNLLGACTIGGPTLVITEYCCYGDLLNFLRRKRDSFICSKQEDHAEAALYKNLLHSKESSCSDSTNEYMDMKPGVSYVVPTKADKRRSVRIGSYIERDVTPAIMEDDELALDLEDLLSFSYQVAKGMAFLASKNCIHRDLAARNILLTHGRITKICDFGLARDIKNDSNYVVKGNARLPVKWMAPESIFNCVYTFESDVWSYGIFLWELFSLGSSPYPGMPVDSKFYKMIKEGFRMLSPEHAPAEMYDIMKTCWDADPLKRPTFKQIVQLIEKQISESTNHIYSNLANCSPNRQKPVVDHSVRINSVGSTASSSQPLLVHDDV
UniProt O00329, sequence (whole entry, looked up): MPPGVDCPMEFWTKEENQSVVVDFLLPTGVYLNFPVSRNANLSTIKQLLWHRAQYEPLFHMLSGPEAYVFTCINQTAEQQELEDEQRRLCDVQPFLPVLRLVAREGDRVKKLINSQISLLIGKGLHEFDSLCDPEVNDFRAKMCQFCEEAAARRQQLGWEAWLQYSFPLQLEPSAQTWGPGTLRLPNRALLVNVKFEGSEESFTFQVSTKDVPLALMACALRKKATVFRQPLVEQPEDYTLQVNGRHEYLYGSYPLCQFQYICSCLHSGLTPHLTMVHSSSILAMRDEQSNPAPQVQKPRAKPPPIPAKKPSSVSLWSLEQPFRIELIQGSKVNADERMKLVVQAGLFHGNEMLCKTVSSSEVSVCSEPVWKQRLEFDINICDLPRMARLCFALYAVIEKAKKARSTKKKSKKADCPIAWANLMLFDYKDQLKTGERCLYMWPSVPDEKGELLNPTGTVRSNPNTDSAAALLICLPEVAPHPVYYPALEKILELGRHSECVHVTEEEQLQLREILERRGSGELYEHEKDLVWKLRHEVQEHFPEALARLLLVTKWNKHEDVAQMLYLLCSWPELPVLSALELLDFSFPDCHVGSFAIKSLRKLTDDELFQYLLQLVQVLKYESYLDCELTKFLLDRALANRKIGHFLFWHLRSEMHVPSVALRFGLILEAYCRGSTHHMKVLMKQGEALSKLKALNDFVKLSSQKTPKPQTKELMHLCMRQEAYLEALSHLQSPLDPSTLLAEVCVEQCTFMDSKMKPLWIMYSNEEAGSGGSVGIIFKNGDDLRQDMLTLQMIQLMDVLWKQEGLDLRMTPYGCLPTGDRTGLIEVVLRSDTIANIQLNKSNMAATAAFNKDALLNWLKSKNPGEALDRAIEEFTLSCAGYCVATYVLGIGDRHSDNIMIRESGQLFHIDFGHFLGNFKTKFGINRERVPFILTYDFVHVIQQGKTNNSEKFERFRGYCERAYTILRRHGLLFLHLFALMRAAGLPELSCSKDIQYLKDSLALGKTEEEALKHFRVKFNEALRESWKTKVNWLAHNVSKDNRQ
UniProt Q6ZWH5, sequence (whole entry, looked up): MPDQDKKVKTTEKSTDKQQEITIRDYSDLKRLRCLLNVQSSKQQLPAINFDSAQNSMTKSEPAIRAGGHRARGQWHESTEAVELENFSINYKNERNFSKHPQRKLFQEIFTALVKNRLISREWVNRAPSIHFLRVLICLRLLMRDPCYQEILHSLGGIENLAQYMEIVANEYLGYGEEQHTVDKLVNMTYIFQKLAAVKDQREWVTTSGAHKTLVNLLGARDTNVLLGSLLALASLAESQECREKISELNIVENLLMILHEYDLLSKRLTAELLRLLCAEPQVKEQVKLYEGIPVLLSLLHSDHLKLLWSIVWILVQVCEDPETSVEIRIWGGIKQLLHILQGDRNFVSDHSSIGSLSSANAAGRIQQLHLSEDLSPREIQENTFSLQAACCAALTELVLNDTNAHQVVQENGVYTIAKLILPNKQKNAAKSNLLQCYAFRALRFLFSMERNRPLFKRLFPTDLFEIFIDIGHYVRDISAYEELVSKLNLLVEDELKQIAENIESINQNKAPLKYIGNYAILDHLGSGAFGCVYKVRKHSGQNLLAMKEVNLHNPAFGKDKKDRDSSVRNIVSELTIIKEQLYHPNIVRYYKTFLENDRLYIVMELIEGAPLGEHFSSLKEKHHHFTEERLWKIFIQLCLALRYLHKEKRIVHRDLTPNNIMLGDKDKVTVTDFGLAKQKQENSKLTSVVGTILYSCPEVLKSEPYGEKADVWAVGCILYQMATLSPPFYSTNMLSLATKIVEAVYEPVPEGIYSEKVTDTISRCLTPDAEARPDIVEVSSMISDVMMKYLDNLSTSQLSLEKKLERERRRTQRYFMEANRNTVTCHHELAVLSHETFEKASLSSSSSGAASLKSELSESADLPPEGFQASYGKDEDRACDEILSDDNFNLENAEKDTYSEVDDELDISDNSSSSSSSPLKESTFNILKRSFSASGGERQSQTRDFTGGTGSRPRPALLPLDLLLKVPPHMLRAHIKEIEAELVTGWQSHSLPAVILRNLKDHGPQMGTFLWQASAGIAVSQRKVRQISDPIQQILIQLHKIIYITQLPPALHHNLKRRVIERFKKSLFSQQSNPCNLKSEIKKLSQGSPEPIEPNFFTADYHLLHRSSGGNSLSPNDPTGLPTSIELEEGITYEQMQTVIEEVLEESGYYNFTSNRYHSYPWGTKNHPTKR
UniProt Q8NG66, sequence (whole entry, looked up): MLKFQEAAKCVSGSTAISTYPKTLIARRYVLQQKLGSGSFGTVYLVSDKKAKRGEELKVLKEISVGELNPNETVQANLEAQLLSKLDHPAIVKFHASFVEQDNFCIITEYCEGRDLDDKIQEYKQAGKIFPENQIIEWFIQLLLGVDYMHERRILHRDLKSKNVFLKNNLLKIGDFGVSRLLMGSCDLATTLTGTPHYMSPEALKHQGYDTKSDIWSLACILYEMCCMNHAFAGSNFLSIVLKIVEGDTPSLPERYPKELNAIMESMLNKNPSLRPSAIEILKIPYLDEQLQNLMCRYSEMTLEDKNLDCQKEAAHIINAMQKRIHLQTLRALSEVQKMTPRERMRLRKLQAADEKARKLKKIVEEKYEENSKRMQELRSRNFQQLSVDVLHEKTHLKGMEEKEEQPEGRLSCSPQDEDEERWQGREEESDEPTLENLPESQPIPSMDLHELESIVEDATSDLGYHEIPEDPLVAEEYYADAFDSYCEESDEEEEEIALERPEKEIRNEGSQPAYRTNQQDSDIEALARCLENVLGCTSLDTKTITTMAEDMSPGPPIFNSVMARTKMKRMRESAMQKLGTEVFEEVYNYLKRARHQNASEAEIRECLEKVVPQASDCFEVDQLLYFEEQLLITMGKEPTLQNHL

Block 1
Target: Calcium/calmodulin-dependent protein kinase type II subunit alpha (CAMK2A, Homo sapiens, UniProt Q9UQM7)
UniProt Q9UQM7, sequence (whole entry, looked up): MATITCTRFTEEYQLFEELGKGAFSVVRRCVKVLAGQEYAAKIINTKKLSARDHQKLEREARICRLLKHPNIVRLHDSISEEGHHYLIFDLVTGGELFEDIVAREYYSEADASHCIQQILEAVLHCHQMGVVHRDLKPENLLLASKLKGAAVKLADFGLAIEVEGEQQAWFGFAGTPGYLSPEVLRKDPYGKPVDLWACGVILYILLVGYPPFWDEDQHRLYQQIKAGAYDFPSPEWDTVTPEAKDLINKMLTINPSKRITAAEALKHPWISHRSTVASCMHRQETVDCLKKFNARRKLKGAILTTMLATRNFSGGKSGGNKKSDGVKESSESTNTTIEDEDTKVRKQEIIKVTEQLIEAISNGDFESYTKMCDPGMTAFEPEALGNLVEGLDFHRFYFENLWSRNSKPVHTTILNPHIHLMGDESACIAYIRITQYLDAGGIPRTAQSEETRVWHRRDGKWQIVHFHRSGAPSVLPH
Observed: enzyme activity
Action: inhibitor
Concentration: 10 µM
| Structure (SMILES) | inhibition [%] |
| --- | --- |
| O=C(O)CCCCCCC(=O)O | -21 |
| CC(C)C[C@@H](O)C(=O)O | -28 |
| CC(=O)c1cccc(O)c1 | -18 |
| O=C1Cc2cc(O)ccc2N1 | 2 |
| CC(=O)SCC(Cc1ccccc1)C(=O)NCC(=O)OCc1ccccc1 (stereo not shown) | -10 |
| COc1cc2c[n+](C)c3c4cc5c(cc4ccc3c2cc1OC)OCO5 | -24 |
| C[n+]1cccc(C(N)=O)c1 | -23 |
| COc1ccc(/C=C\c2cc(OC)c(OC)c(OC)c2)cc1O | -24 |
| O=c1ccn([C@H]2C[C@H](O)[C@@H](CO)O2)c(=O)[nH]1 | 46 |

Block 2
Host: mouse
Medium: microsomes or S9
Concentration: 2 µM
Time: 0.5 h
| Compound | remaining compound |
| --- | --- |
| CC1(C)CC(NC(=O)CCCNc2nc(Cl)nc3[nH]cnc23)CC(C)(C)N1 | 92.2% |
| Cc1cc(C)c(NC(=O)CN(C)S(=O)(=O)c2ccc3[nH]c(=O)ccc3c2)c(C)c1 | > 100% |
| O=C(O)c1ccc2c(c1)NC(=O)c1ccccc1S2(=O)=O | 96.8% |
| Brc1ccc(-c2n[nH]c(-c3ccccc3)c2-c2ncc[nH]2)cc1 | 39.9% |
| CC(C)(C)c1ccc(OCCOCCOc2ccc(C(C)(C)C)cc2O)c(O)c1 | 23.9% |
| CC1(C)CNC(=O)c2nc(Cc3ccc(O)cc3)[nH]c2C1 | 98.5% |
| CC1COc2c(N3CC4CC3CCN4C)c(F)cc3c(=O)c(C(=O)O)cn1c23 (stereo not shown) | 77.5% |
| N=C(N)Nc1ccc(OCCCCCOc2ccc(NC(=N)N)cc2)cc1 | 48.4% |
| COCCCNC(=O)N1Cc2c(sc3c2CCCC3)-n2cccc2C1c1cc(F)cc(F)c1 (stereo not shown) | 1.55% |
| CC(C)(C)OC(=O)NC1CCN(c2nnc(Cl)c3ccccc23)CC1 | 1.45% |
| CCc1c2c(nc3sc(C(=O)N4CCc5cc(OC)c(OC)cc5C4)c(N)c13)CC(C)(C)CC2=O | 5.13% |
| O=C(NCc1cn2ccsc2n1)c1c[nH]c2nccc(Cl)c12 | 41.6% |
| Cc1cnc(C2CC2)n1C1CCN(C(=O)c2ccoc2)CC1 | > 100% |
| Cc1[nH]c2cccc3c2c1CCN1C(=O)OC2(CC(C)(C)NC(C)(C)C2)C31C (stereo not shown) | 77.4% |
| COc1cc(=O)[nH]cc1C(=O)N[C@@H]1CCO[C@H]1c1c(C)nn(C)c1C | 88.2% |
| O=C(NC1CCN(Cc2ccc(OC3CCNCC3)c(Br)c2)CC1)c1cc2cc(Br)ccc2s1 | 68.1% |
| Cc1cc(C)nc(Nn2c(-c3ccccc3)nc3ccccc3c2=O)n1 | 3.28% |
| CS(=O)(=O)C1=C(N)C(=O)N(c2ccccc2)C1c1ccccc1 (stereo not shown) | 0.278% |

Block 3
Target: Beta-adrenergic receptor kinase 1 (GRK2, Homo sapiens, UniProt P25098)
UniProt P25098, sequence (whole entry, looked up): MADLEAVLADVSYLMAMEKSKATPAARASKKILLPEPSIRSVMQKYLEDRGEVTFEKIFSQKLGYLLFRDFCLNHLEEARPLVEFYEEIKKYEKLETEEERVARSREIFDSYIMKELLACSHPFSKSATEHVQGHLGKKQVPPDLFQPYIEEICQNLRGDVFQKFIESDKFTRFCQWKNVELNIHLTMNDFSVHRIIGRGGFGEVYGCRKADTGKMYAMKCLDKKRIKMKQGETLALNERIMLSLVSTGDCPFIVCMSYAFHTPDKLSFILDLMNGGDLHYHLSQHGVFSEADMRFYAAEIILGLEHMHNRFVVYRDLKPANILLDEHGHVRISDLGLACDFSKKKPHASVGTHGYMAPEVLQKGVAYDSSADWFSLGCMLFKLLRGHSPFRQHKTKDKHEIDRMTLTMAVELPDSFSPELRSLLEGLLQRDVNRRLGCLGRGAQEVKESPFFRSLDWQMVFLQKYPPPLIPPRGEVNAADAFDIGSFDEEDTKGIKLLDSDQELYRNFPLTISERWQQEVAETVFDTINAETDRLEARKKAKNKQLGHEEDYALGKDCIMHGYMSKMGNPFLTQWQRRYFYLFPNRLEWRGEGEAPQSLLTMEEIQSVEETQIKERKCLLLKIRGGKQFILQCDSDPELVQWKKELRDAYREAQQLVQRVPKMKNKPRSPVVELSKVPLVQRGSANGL
Observed: enzyme activity
Action: inhibitor
Concentration: 0.5 µM
Baseline: control
| SMILES | remaining activity |
| --- | --- |
| CC(C)(C)c1nc2c3cc[nH]c(=O)c3c3cc(F)ccc3c2[nH]1 | 98.5% |
| O=c1c(-c2ccc(F)cc2)c(-c2ccncc2)[nH]n1-c1ccc(Cl)cc1 | 106% |
| O=C1NC(=O)/C(=C/c2ccc3c(c2)OC(F)(F)O3)S1 | 103% |
| COc1cc2c(Nc3ccc(Br)cc3F)ncnc2cc1OCC1CCN(C)CC1 | 92.2% |
| N#C/C(=C(/N)SC1C=CC=CC1)c1cccc(C(O)c2ccncc2)c1 (stereo not shown) | 110% |
| O=C(c1ccccc1)c1ccc(N2CCOCC2)cc1O | 99.6% |
| O=Nc1c(-c2c(O)[nH]c3ccccc23)[nH]c2ccccc12 | 89.5% |
| CC(C)N(CCC(=O)c1ccc2ccccc2c1)Cc1ccccc1 | 106% |
| CCCCc1c(-c2ccc(O)cc2)[nH]c2nccnc12 | 76.5% |
| NC(=O)c1ccc(-c2nc(-c3ccc4c(c3)OCCO4)c(-c3ccccn3)[nH]2)cc1 | 98.9% |
| NC(=O)c1cccc(-c2cc(Nc3ccc(OC(F)(F)F)cc3)ncn2)c1 | 96.1% |
| Nc1nc(Nc2ccc(S(N)(=O)=O)cc2)nn1C(=S)Nc1c(F)cccc1F | 97.8% |
| COc1cc2c(N3CCN(C(=O)Nc4ccc(OC(C)C)cc4)CC3)ncnc2cc1OCCCN1CCCCC1 | 98% |
| c1cc(-c2cnn3cc(-c4ccc(OCCN5CCCCC5)cc4)cnc23)ccn1 | 81.8% |
| C[C@@H](N)[C@H]1CC[C@H](C(=O)Nc2ccncc2)CC1 | 99.1% |
| O=C(O)/C=C/c1cc(Br)c(Br)c(Br)c1Br | 97.9% |
| CNc1cc2c(Nc3cccc(Br)c3)ncnc2cn1 | 97% |
| CCN(CC)CCCCN1c2ccccc2Oc2ccc(Cl)cc21 | 96.5% |
| CC(C)n1cnc2c(Nc3cccc(Cl)c3)nc(NCCO)nc21 | 96% |
| Clc1ccc(Nc2nnc(Cc3ccncc3)c3ccccc23)cc1 | 102% |
| N#CC(c1ccnc(NCCc2cccnc2)n1)c1nc2ccccc2s1 (stereo not shown) | 103% |
| FC(F)(F)c1ccc(/C=C/c2nc(COc3ccc(CCCCn4ccnn4)cc3)co2)cc1 | 113% |
| O=C1c2ccccc2-c2nc3nnnn3nc21 | 106% |

Block 4
SMILES: O=C(O)c1cc(-c2ccc(C3CCNCC3)cc2)c2ccc(-c3ccc(C(F)(F)F)cc3)cc2c1
Observed: cell-free assay
Method: competition with immobilised ligand
Concentration: 1 µM
| target | remaining binding [%] |
| --- | --- |
| KIT (Homo sapiens, UniProt P10721, V559D/V654A) | 100 |
| PRKCD (Homo sapiens, UniProt Q05655) | 100 |
| PIK3CD (Homo sapiens, UniProt O00329) | 98 |
| SRMS (Homo sapiens, UniProt Q9H3Y6) | 100 |
| HIPK2 (Homo sapiens, UniProt Q9H2X6) | 100 |
| PAK2 (Homo sapiens, UniProt Q13177) | 100 |
| BMX (Homo sapiens, UniProt P51813) | 100 |
| TNK1 (Homo sapiens, UniProt Q13470) | 100 |
| AKT1 (Homo sapiens, UniProt P31749) | 99 |
| STK4 (Homo sapiens, UniProt Q13043) | 98 |
| Ribosomal protein S6 kinase alpha-2, C-terminal kinase domain (RPS6KA2, Homo sapiens, UniProt Q15349) | 100 |
| Tyrosine-protein kinase ABL1, non-phosphorylated (ABL1, Homo sapiens, UniProt P00519) | 72 |
| KIT (Homo sapiens, UniProt P10721, T670I/V559D) | 100 |
| MAP3K14 (Homo sapiens, UniProt Q99558) | 100 |
| NEK10 (Homo sapiens, UniProt Q6ZWH5) | 100 |
| STK38 (Homo sapiens, UniProt Q15208) | 83 |
| NEK11 (Homo sapiens, UniProt Q8NG66) | 100 |

Some of these lines once more (block 2):
| Compound | remaining compound |
| --- | --- |
| Cc1[nH]c2cccc3c2c1CCN1C(=O)OC2(CC(C)(C)NC(C)(C)C2)C31C (stereo not shown) | 77.4% |
| COc1cc(=O)[nH]cc1C(=O)N[C@@H]1CCO[C@H]1c1c(C)nn(C)c1C | 88.2% |
| O=C(NC1CCN(Cc2ccc(OC3CCNCC3)c(Br)c2)CC1)c1cc2cc(Br)ccc2s1 | 68.1% |
| Cc1cc(C)nc(Nn2c(-c3ccccc3)nc3ccccc3c2=O)n1 | 3.28% |
| CS(=O)(=O)C1=C(N)C(=O)N(c2ccccc2)C1c1ccccc1 (stereo not shown) | 0.278% |
